Experimental data collected from several papers.
Numbered parts are unrelated; each lists some results of a single study.

Set 1 — technique: aptamer microarray, sandwich; form: DNA with 2'F-ANA; matrix: in vitro; tested at: 200 nM; together with: Cy3 exosite-II aptamer, 400 nM; direction: higher = stronger binding; oligonucleotide: GGTTGGTGTGGTTGG
Target: Prothrombin, mature alpha-thrombin (F2, Homo sapiens, UniProt P00734)
Setting: whole 15-mer aptamer, many near background
For `2'F-ANA at 3 6 12 14 15`, “mean fluorescence intensity” read 535 a.u.
`2'F-ANA at 3 4 5 6 7 8 10 14` — result for “mean fluorescence intensity”: 47.8 a.u.
`2'F-ANA at 3 9 11 12 15`: “mean fluorescence intensity” 1250 a.u.
`2'F-ANA at 1 3 4 7 8 9 10 11 12 15`: “mean fluorescence intensity” 97 a.u.
Under “mean fluorescence intensity”, `2'F-ANA at 1 5 7 9 12` is recorded as 132 a.u.
For `2'F-ANA at 1 2 3 5 7 9 10 11 15`, “mean fluorescence intensity” read 45.8 a.u.
Under “mean fluorescence intensity”, `2'F-ANA at 1 5 7 9 12 13 15` is recorded as 69.6 a.u.

Set 2 — technique: RNA Bind-n-Seq; form: RNA; matrix: in vitro; tested at: 200 nM; setting: whole 134-nt RNA, ends assumed; together with: 150 mM LiCl; relative to: input library; direction: higher = stronger binding; each molecule: 7-deaza-guanosine replaces G
Target: Ras GTPase-activating protein-binding protein 1, full length (G3BP1, Homo sapiens, UniProt Q13283)
Chain of UniProt Q13283 (whole entry, looked up): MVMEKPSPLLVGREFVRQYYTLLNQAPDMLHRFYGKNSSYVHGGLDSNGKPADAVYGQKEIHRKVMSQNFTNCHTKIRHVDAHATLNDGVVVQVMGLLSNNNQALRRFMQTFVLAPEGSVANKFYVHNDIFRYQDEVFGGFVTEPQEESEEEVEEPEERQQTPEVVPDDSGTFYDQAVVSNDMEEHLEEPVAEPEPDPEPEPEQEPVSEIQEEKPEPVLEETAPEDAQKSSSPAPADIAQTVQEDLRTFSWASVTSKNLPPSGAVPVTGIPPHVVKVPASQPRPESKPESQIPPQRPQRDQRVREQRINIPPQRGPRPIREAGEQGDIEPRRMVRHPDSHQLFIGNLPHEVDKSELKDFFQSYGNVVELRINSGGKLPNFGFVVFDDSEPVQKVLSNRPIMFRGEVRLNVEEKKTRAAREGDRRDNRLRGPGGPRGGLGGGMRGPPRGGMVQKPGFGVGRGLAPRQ
The log2 enrichment of `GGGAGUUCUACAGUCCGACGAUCUGGCCCUGGUGACAUGCGGGGAGGAAGAGGUGGCCUCAUGGAUCGUGGUGGUCCCGGUGGAAUGUUCAGAGGUGGCCGUGGUGGAGACAGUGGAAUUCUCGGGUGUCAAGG` is reported as -0.00738.
`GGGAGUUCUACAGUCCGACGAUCGUCCUGUGCUACACAUCGUAUGUACCGAAUCGGGGUUUUUGGGGAAAGGGGAAAGGGGAAAGUAUUAUGUUACGCCGUUCGGAUCUGCACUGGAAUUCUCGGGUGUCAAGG` gave a log2 enrichment of 0.311.
`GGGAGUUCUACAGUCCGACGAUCGCCCAUGCUAAAGUAAGAUUGUCUAACAAAGUUGAAGCCAUUGAUGUGGAAGAGGCCAAACGCCUCCAUCGGGAAGCUCUGAAGCAGUCUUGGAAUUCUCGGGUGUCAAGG` gave a log2 enrichment of 0.0753.
`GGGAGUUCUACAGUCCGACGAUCCUCAAGUCCUGUGCUACACAUCGUAUGUACCGAAUCGGGCGGGCGGGGCGGGGAAAGUAUUAUGUUACGCCGUUCGGAUCUGCACUUCCAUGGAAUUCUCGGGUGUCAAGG` has a log2 enrichment of -0.0905.
The log2 enrichment of `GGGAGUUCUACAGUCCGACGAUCUCCUGUGCUACACAUCGUAUGUACCGAAUCGGGUUUUUUUGGGAAAAAGGGAAAAAGGGAAAGUAUUAUGUUACGCCGUUCGGAUCUGCAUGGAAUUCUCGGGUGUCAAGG` is reported as -1.27.
The log2 enrichment of `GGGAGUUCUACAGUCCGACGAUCCAAGUCCUGUGCUACACAUCGUAUGUACCGAAUCGGCCCGGGGCCCGGGCCCGGGAAAGUAUUAUGUUACGCCGUUCGGAUCUGCACUUCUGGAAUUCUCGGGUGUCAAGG` is reported as -1.25.
`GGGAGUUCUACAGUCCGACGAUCCACAGACAACACGCACCCACACAGACACAAAGGGAAGGGGUUGGGAUGGGGACAGGGUGCACAGCAGGGCGGGGUAGGACCCCAGCCCCUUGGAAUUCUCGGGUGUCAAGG` has a log2 enrichment of -0.292.
For `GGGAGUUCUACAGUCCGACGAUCUCCUGUGCUACACAUCGUAUGUACCGAAUCGGGGAAAAAAGGAAAAAAGGGAAAAAAGGGAAAGUAUUAUGUUACGCCGUUCGGAUCUGCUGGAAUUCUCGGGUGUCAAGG`, the log2 enrichment was 0.221.

Set 3 — technique: protein binding microarray; form: double-stranded DNA, one strand shown; matrix: in vitro; tested at: not given; relative to: not given; direction: higher = stronger binding
Target: Histone acetyltransferase KAT6A, winged helix 1, GST fusion (KAT6A, Homo sapiens, UniProt Q92794, residues 1-85)
Setting: 8-mer, flanks averaged, mean of 2 arrays, mostly near background
Residues (chain): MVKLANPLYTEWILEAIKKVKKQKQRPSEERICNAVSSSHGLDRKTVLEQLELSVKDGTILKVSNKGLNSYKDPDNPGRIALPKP
`CTAAGTTC` gave an E-score of -0.16.
`AGGCTAGA` has an E-score of -0.188.
With `GCCTACCA` the E-score was 0.0695.
`AGACCTAG` gave an E-score of -0.0377.
With `ACAGTACT` the E-score was -0.222.
For `ACACCGTG`, the E-score was 0.256.
The E-score of `CCTTGATC` is reported as -0.118.

Further values, each from its own experiment
For `PhoQ, residues 284 288 289 292 302 303 SSTMSV`, the fold induction was 26.8 (PhoP, residues 12 14 15 18 19 LHTVL (Escherichia coli, UniProt P23836); Sort-seq, measured: YFP reporter; E. coli; PhoQ-PhoP variant library, together with: 10 µM Mg2+; relative to: high Mg2+ state, higher = stronger signaling).

Repeated from above (set 3):
`CTAAGTTC` gave an E-score of -0.16.
The E-score of `CCTTGATC` is reported as -0.118.
